# Measured values from different studies.
# Each numbered part is a random draw from the data of one study; scales do not carry over between parts.
# Sequence of UniProt Q99558 (whole entry, looked up): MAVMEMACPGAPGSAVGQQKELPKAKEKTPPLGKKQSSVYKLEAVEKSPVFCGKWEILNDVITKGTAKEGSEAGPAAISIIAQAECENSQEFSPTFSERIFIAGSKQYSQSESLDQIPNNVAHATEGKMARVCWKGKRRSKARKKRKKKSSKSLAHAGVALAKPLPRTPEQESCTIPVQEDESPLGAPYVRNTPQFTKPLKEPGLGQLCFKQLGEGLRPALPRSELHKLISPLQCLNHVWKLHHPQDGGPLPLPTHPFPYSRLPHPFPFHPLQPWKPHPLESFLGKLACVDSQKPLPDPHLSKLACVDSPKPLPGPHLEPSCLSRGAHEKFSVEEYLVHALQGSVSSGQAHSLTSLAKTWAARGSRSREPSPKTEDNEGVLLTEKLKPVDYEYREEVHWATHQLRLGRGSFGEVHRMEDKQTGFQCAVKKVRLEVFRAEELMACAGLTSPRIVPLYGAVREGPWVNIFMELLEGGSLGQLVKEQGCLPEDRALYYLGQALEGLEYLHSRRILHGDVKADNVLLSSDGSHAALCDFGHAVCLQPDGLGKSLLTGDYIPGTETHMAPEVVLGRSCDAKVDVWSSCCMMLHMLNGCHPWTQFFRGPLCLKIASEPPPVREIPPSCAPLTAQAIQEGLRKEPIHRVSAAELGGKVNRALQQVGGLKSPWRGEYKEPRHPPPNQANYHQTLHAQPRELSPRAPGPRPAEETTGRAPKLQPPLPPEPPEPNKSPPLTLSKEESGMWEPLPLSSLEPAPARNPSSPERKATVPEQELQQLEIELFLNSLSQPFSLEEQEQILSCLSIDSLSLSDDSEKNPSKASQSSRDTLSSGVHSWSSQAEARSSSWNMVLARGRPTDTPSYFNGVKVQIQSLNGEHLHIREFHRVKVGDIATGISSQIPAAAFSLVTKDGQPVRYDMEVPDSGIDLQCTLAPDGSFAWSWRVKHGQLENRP

# Block 1
# Target: Eukaryotic initiation factor 4A-I (EIF4A1, Homo sapiens, UniProt P60842, residues 1-406, full length assumed)
# Sequence of UniProt P60842 (whole entry, looked up): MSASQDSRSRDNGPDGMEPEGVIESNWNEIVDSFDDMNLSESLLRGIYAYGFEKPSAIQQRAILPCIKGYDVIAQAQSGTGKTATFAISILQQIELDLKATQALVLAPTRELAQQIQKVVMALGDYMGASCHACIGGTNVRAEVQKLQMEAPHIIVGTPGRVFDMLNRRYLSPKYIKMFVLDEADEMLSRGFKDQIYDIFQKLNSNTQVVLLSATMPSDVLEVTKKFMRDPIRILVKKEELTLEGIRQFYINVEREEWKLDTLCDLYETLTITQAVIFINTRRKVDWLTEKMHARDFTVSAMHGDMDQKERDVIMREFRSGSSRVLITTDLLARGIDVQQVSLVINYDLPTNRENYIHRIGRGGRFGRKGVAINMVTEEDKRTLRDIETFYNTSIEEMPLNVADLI
# Technique: RNA Bind-n-Seq
# Form: RNA
# Sample: in vitro
# Tested at: 15 pmol
# Setting: 4-mer, random 30-nt RNA, single round
# Together with: 3 µM RocA, 2 mM AMP-PNP
# Reference: mean of 4-mers
# Reading: higher = stronger binding
Sequence,4-mer enrichment Z-score
GGCC,-0.556
AUGG,1.04
UCAG,-0.874
AUCU,-0.789
AACG,-0.0137
GUCU,-0.553
CACG,-0.887
AAUG,1.25

# Block 2
# Target: Sal-like protein 4, full length isoform A (SALL4, Homo sapiens, UniProt Q9UJQ4, residues 1-1053)
# Sequence of UniProt Q9UJQ4 (whole entry, looked up): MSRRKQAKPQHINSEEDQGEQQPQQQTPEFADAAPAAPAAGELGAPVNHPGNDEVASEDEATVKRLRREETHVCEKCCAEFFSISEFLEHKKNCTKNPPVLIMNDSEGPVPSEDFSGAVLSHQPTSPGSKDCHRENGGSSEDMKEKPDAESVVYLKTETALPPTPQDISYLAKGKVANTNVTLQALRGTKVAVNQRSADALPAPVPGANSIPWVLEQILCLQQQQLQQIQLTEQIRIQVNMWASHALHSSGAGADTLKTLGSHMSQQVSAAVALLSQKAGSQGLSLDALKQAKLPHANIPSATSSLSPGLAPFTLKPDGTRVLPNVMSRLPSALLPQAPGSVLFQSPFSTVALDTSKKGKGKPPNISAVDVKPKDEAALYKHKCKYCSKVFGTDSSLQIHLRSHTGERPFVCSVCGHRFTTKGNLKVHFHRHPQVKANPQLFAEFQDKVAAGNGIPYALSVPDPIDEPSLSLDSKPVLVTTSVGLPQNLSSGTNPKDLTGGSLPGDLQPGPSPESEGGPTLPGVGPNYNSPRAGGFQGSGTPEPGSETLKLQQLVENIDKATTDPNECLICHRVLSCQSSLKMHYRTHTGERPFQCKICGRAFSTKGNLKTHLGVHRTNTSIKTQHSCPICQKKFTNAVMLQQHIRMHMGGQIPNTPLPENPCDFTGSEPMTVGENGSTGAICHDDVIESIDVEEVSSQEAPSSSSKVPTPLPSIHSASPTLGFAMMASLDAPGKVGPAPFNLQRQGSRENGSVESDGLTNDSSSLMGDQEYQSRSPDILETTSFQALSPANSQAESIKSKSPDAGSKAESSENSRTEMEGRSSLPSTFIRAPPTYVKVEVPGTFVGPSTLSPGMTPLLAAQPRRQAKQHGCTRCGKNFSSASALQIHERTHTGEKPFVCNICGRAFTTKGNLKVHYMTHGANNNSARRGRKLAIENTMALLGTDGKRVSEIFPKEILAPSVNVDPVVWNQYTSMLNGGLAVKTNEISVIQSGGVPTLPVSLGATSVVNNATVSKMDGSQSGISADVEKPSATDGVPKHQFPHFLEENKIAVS
# Technique: universal PBM
# Form: double-stranded DNA, one strand shown
# Sample: in vitro
# Tested at: 600 nM
# Setting: 8-mer, flanks averaged, mean of replicates
# Reading: higher = stronger binding
Sequence,E-score
GGGATCCC,-0.336
AAGACCCC,-0.185
ATTGTTCC,0.0224
ACACTGAC,-0.0189
ATTTCTGA,0.101
CCGGAGCG,-0.225
CGGAGATA,0.0531
GGTTGATA,0.0722

# Other studies, line by line
# EPHB1: Ephrin type-B receptor 1 (EPHB1, Homo sapiens, UniProt P54762)
# Sequence of UniProt P54762 (whole entry, looked up): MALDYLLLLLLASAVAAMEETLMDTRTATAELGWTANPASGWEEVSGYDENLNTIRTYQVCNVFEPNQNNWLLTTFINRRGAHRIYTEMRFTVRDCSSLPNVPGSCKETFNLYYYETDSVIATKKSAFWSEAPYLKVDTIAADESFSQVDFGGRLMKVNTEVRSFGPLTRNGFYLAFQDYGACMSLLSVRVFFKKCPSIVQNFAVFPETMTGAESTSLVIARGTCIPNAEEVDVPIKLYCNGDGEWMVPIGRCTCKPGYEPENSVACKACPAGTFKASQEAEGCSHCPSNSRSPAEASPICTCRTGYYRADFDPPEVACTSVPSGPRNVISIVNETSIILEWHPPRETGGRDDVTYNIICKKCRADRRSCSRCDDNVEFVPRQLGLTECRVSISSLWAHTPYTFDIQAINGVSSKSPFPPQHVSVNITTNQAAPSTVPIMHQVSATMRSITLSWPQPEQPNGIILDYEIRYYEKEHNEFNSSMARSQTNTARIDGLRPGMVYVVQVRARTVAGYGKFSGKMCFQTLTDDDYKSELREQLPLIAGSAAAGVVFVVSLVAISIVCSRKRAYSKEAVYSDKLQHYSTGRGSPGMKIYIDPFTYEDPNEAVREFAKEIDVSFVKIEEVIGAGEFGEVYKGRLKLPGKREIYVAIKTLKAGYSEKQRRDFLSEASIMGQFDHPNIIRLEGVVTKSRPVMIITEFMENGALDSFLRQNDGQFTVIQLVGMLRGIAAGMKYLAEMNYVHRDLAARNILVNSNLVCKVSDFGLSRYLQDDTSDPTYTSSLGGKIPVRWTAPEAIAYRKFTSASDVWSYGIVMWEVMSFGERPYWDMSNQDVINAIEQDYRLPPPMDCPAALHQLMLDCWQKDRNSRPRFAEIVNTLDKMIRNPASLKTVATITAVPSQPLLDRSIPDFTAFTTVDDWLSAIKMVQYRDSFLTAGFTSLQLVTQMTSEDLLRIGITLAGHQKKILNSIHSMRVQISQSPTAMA
SMILES,target,assay,setting,scale,endpoint,result
N#C/C(=C(/N)SC1C=CC=CC1)c1cccc(C(O)c2ccncc2)c1 (stereo not shown),EPHB1,"enzyme activity, inhibitor",0.5 µM,reference: control,remaining activity,95%
O=C(N1CCS(=O)(=O)CC1)N1C[C@H](c2ccc(OC(F)(F)F)cc2)C[C@H](c2nc(C3CC3)no2)C1,"MAP3K14 (Homo sapiens, UniProt Q99558)","cell-free assay, competition with immobilised ligand",1 µM,,remaining binding,87%
C[C@@H](N)[C@H]1CC[C@H](C(=O)Nc2ccncc2)CC1,EPHB1,"enzyme activity, inhibitor",0.5 µM,reference: control,remaining activity,95%
